Published values gathered from unrelated publications.
Values after ≈ are worked out from the molar mass of the structure shown.

O=C(NC12CC3CC(CC(C3)C1)C2)c1cc2cc(Cl)ccc2[nH]1  MIC (Mycobacterium tuberculosis variant bovis BCG; microbial growth; BCG): 0.8 µM (≈ 0.263 µg/mL)
O=C(CN1CCCC2=CC3CC(CN4CCCCC34)C21)Nc1cc(Br)ccc1Br (stereo not drawn)  EC50 (vesicular stomatitis virus; pseudovirus entry; VSV G pseudovirus): 40.3 µM
CCCC(=O)NCC(=O)N[C@@H](CC(C)C)C(=O)N[C@@H](CC(C)C)C(=O)N[C@@H](CCCCN)C(=O)N[C@@H](CCCNC(=N)N)C(=O)N[C@H](C(=O)N[C@@H](CCCCN)C(=O)N[C@H](C(=O)N[C@@H](CC(C)C)C(=O)N[C@@H](CC(C)C)C(N)=O)[C@@H](C)O)[C@@H](C)CC  geometric mean MIC (five bacterial species; bacterial growth): 194 µM
COc1ccc(CCNc2cc(-c3ccccc3)nc3ncnn23)cc1  MIC (Mycobacterium tuberculosis variant bovis BCG; microbial growth; BCG): 1 µM (≈ 0.345 µg/mL)
Cc1ccccc1CN1CCCC2=CC3CC(CN4CCCCC34)C21 (stereo not drawn)  EC50 (vesicular stomatitis virus; pseudovirus entry; VSV G pseudovirus): 25.4 µM
CCCCCCCCCC(=O)OCC1OC(n2cc(C)c(=O)[nH]c2=O)CC1N(C)C (stereo not drawn)  EC50 (vesicular stomatitis virus; viral replication; HEL): > 0.23 µM
O=C(CNc1cccc(F)c1)N1CCCC2=CC3CC(CN4CCCCC34)C21 (stereo not drawn)  EC50 (vesicular stomatitis virus; pseudovirus entry; VSV G pseudovirus): > 267 µM
Cc1ccc2nc(C)c(C(=O)NCc3cccs3)n2c1  MIC (Mycobacterium tuberculosis variant bovis BCG; microbial growth; BCG): 0.5 µM (≈ 0.143 µg/mL)
COc1ccc(CC(C)=C(c2ccc(Cl)cc2)c2ccc(OCCN3CCOCC3)cc2)cc1  EC50 (influenza A virus H1N1; cytopathic effect, visual CPE; MDCK): > 2.2 µg/mL
Cc1cccc(-c2nc(Nc3ccncn3)c3sccc3n2)n1  MIC (Mycobacterium tuberculosis variant bovis BCG; microbial growth; THP-1, BCG; intracellular): > 10 µM
CCC(=C(c1ccc(Cl)cc1)c1ccc(OCCN2CCCC2)cc1)c1ccc(Cl)cc1  EC50 (influenza A virus H1N1; cytopathic effect, visual CPE; MDCK): 5.6 µg/mL
CCCCCCCC(=O)NCC(=O)N[C@@H](CC(C)C)C(=O)N[C@@H](CC(C)C)C(=O)N[C@@H](CCCCN)C(=O)N[C@@H](CCCNC(=N)N)C(=O)N[C@H](C(=O)N[C@@H](CCCCN)C(=O)N[C@H](C(=O)N[C@@H](CC(C)C)C(=O)N[C@@H](CC(C)C)C(N)=O)[C@@H](C)O)[C@@H](C)CC  geometric mean MIC (five bacterial species; bacterial growth): 10.6 µM
CC(=C(c1ccc(Cl)cc1)c1ccc(OCCN2CCCCC2)cc1)c1ccc(Cl)cc1  EC50 (influenza A virus H1N1; cytopathic effect, visual CPE; MDCK): > 63 µg/mL
Fc1ccc(-c2ccc(/C=C/Cn3ccnc3)cc2)cc1  MIC50 (Mycobacterium tuberculosis variant bovis BCG; microbial growth; BCG): 0.5 µg/mL (≈ 1.8 µM)
CNc1nc(SC)nc2ccccc12  MIC (Mycobacterium tuberculosis variant bovis BCG; microbial growth; THP-1, BCG; intracellular): > 10 µM
COc1ccc2cc(-c3ccc(Cn4ccnc4)cc3)ccc2c1  MIC50 (Mycobacterium tuberculosis variant bovis BCG; microbial growth; BCG): 0.8 µg/mL (≈ 2.54 µM)
N=C(N)NCCC[C@H](NC(=O)[C@H](Cc1ccccc1)NC(=O)[C@H](Cc1ccc(O)cc1)NC(=O)[C@H](Cc1c[nH]c2ccccc12)NC(=O)[C@@H](N)CCCCN)C(=O)N[C@@H](Cc1c[nH]c2ccccc12)C(=O)O  antimicrobial spectrum score (Xanthomonas citri, Burkholderia, Pseudomonas syringae; 100 µg/mL, summed over five organisms; direction not given): < 14
Fc1ccc(-c2ccc(Cn3ccnc3)c(F)c2)cc1F  MIC50 (Mycobacterium tuberculosis variant bovis BCG; microbial growth; BCG): 0.9 µg/mL (≈ 3.12 µM)
CCC(=C(c1ccc(Cl)cc1)c1ccc(OCCN2CCCCC2)cc1)c1ccc(Cl)cc1  EC50 (influenza A virus H1N1; cytopathic effect, visual CPE; MDCK): > 3.2 µg/mL
CCCCCC(=O)NCC(=O)N[C@@H](CC(C)C)C(=O)N[C@@H](CC(C)C)C(=O)N[C@@H](CCCCN)C(=O)N[C@@H](CCCNC(=N)N)C(=O)N[C@H](C(=O)N[C@@H](CCCCN)C(=O)N[C@H](C(=O)N[C@@H](CC(C)C)C(=O)N[C@@H](CC(C)C)C(=O)NCCCC[C@H](NC(=O)[C@H](CC(C)C)NC(=O)[C@H](CC(C)C)NC(=O)[C@@H](NC(=O)[C@H](CCCCN)NC(=O)[C@@H](NC(=O)[C@H](CCCNC(=N)N)NC(=O)[C@H](CCCCN)NC(=O)[C@H](CC(C)C)NC(=O)[C@H](CC(C)C)NC(=O)CNC(=O)CCCCC)[C@@H](C)CC)[C@@H](C)O)C(=O)NCCCC[C@H](NC(=O)[C@H](CCCCNC(=O)[C@H](CC(C)C)NC(=O)[C@H](CC(C)C)NC(=O)[C@@H](NC(=O)[C@H](CCCCN)NC(=O)[C@@H](NC(=O)[C@H](CCCNC(=N)N)NC(=O)[C@H](CCCCN)NC(=O)[C@H](CC(C)C)NC(=O)[C@H](CC(C)C)NC(=O)CNC(=O)CCCCC)[C@@H](C)CC)[C@@H](C)O)NC(=O)[C@H](CC(C)C)NC(=O)[C@H](CC(C)C)NC(=O)[C@@H](NC(=O)[C@H](CCCCN)NC(=O)[C@@H](NC(=O)[C@H](CCCNC(=N)N)NC(=O)[C@H](CCCCN)NC(=O)[C@H](CC(C)C)NC(=O)[C@H](CC(C)C)NC(=O)CNC(=O)CCCCC)[C@@H](C)CC)[C@@H](C)O)C(N)=O)[C@@H](C)O)[C@@H](C)CC  geometric mean MIC (five bacterial species; bacterial growth): 32 µM
COc1ccc(CC(C)=C(c2ccc(Cl)cc2)c2ccc(OCCCN(C)C)cc2)cc1  EC50 (influenza A virus H1N1; cytopathic effect, visual CPE; MDCK): > 3.2 µg/mL
Clc1ccc(CN2CCCC3=CC4CC(CN5CCCCC45)C32)c(Cl)c1 (stereo not drawn)  EC50 (vesicular stomatitis virus; pseudovirus entry; VSV G pseudovirus): 16.2 µM
CCCCCCCC(=O)NCC(=O)N[C@@H](CC(C)C)C(=O)N[C@@H](CC(C)C)C(=O)N[C@@H](CCCCN)C(=O)N[C@@H](CCCNC(=N)N)C(=O)N[C@H](C(=O)N[C@@H](CCCCN)C(=O)N[C@H](C(=O)N[C@@H](CC(C)C)C(=O)N[C@@H](CC(C)C)C(=O)NCCCC[C@H](NC(=O)[C@H](CCCCNC(=O)[C@H](CC(C)C)NC(=O)[C@H](CC(C)C)NC(=O)[C@@H](NC(=O)[C@H](CCCCN)NC(=O)[C@@H](NC(=O)[C@H](CCCNC(=N)N)NC(=O)[C@H](CCCCN)NC(=O)[C@H](CC(C)C)NC(=O)[C@H](CC(C)C)NC(=O)CNC(=O)CCCCCCC)[C@@H](C)CC)[C@@H](C)O)NC(=O)[C@H](CC(C)C)NC(=O)[C@H](CC(C)C)NC(=O)[C@@H](NC(=O)[C@H](CCCCN)NC(=O)[C@@H](NC(=O)[C@H](CCCNC(=N)N)NC(=O)[C@H](CCCCN)NC(=O)[C@H](CC(C)C)NC(=O)[C@H](CC(C)C)NC(=O)CNC(=O)CCCCCCC)[C@@H](C)CC)[C@@H](C)O)C(N)=O)[C@@H](C)O)[C@@H](C)CC  geometric mean MIC (five bacterial species; bacterial growth): 42.2 µM
CC(C)C[C@H](NC(=O)[C@H](Cc1c[nH]cn1)NC(=O)[C@H](Cc1ccc(O)cc1)NC(=O)[C@H](CCCNC(=N)N)NC(=O)[C@H](Cc1ccc(O)cc1)NC(=O)[C@H](CCCCN)NC(=O)[C@H](CCCCN)NC(=O)c1ccc(CN/C(=N/C(=O)c2ccccc2)Nc2ccc(Br)cc2)cc1)C(=O)N[C@@H](CCCCN)C(=O)N1CCC[C@H]1C(=O)N[C@@H](Cc1ccccc1)C(=O)NCCCC[C@H](NC(=O)[C@H](Cc1ccccc1)NC(=O)[C@@H]1CCCN1C(=O)[C@H](CCCCN)NC(=O)[C@H](CC(C)C)NC(=O)[C@H](Cc1c[nH]cn1)NC(=O)[C@H](Cc1ccc(O)cc1)NC(=O)[C@H](CCCNC(=N)N)NC(=O)[C@H](Cc1ccc(O)cc1)NC(=O)[C@H](CCCCN)NC(=O)[C@H](CCCCN)NC(=O)c1ccc(CN/C(=N/C(=O)c2ccccc2)Nc2ccc(Br)cc2)cc1)C(N)=O  IC50 (Leishmania amazonensis; parasite growth; 72 h, promastigote): 6.25 µM
O=C(CN1CCCC2=CC3CC(CN4CCCCC34)C21)Nc1ccc(Br)c(C(F)(F)F)c1 (stereo not drawn)  EC50 (vesicular stomatitis virus; pseudovirus entry; VSV G pseudovirus): 6 µM
CC(=C(c1ccc(Cl)cc1)c1ccc(OCCCN(C)C)cc1)c1ccc(Cl)cc1  EC50 (influenza A virus H1N1; cytopathic effect, visual CPE; MDCK): 3.2 µg/mL
CCCCCCCCCCCC(=O)NCC(=O)N[C@@H](CC(C)C)C(=O)N[C@@H](CC(C)C)C(=O)N[C@@H](CCCCN)C(=O)N[C@@H](CCCNC(=N)N)C(=O)N[C@H](C(=O)N[C@@H](CCCCN)C(=O)N[C@H](C(=O)N[C@@H](CC(C)C)C(=O)N[C@@H](CC(C)C)C(N)=O)[C@@H](C)O)[C@@H](C)CC  geometric mean MIC (five bacterial species; bacterial growth): 36.8 µM
COc1ccc2nc(C)cc(OCC(=O)Nc3cc(C)cc(C)c3)c2c1  MIC (Mycobacterium tuberculosis variant bovis BCG; microbial growth; THP-1, BCG; intracellular): > 10 µM
CCC(=C(c1ccc(Cl)cc1)c1ccc(OCCCN(C)C)cc1)c1ccc(OC)cc1  EC50 (influenza A virus H1N1; cytopathic effect, visual CPE; MDCK): > 3.2 µg/mL
CSc1ccc(-c2ccc(Cn3ccnc3)cc2)s1  MIC50 (Mycobacterium tuberculosis variant bovis BCG; microbial growth; BCG): 1.1 µg/mL (≈ 3.84 µM)
